Results from different studies.
A part holds a random share of what one study measured. Substitutions count along the parent as printed.

Sample 1
Target: NFE2L1, bZIP domain (human)
Method: DHFR protein complementation
Matrix: yeast
Setting: single substitutions, most at no-binding floor
Relative to: wild-type JUN-FOS pair
Direction: higher = stronger binding
Quantity: binding fitness
Starting sequence: JUN, bZIP domain (human); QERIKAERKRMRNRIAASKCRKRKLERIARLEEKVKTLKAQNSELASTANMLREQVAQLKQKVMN; partner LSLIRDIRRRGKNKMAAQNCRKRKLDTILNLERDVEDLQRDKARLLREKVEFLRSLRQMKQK
K36W: -1.59 natural log
E33F: -1.39 natural log
N42W: -1.5 natural log
K34Q: -1.32 natural log

Sample 2
Target: Sal-like protein 4, full length isoform B (SALL4, Homo sapiens, UniProt Q9UJQ4-2, residues 1-616)
Method: universal PBM
Form: double-stranded DNA, one strand shown
Matrix: in vitro
Tested at: not given
Setting: 8-mer, flanks averaged, mean of replicates
Direction: higher = stronger binding
Quantity: E-score
Construct (chain): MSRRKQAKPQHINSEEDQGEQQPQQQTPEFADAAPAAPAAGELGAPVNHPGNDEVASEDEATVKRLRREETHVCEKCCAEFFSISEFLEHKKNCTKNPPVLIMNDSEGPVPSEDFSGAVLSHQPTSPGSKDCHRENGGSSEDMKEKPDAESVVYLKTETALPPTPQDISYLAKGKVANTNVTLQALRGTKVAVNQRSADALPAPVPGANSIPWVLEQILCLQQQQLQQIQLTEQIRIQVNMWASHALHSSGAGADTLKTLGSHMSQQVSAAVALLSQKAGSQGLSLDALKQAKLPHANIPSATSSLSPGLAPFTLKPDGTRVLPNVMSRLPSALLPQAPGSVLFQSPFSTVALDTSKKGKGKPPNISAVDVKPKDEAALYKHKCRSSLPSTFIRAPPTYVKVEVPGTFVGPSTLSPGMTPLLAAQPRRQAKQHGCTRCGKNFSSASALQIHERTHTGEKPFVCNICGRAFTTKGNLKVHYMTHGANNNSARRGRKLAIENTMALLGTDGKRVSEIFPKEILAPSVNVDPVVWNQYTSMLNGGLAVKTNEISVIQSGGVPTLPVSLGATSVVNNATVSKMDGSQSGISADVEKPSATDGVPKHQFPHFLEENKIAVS
AACAGCAA: 0.124
CTCGAGTA: 0.00754
CTAAAACC: 0.0203
AAGGATAG: 0.0877
ACTCTGGC: -0.268

Sample 3
Target: Interferon regulatory factor 5, full length, phosphomimetic (IRF5, Homo sapiens, UniProt Q13568-2, residues 1-514, K96S/S451D/S453D/S456D/S462D)
Method: protein-binding microarray
Form: double-stranded DNA, one strand shown
Matrix: in vitro
Tested at: 250 nM
Setting: 60-bp whole probe
Added: salmon DNA 0.4 mg/ml
Relative to: random background probes
Direction: higher = stronger binding
Quantity: log fluorescence
GCCTAGCACGTAGGTTCCGGTTTCGGTTAGTGCTAGGTCTTGATTCGCTTGACGCTGCTG: 9.51 z-score
GCCTAGCACGACGAACTGGGGACTGAAGACGTGCTAGTCTTGATTCGCTTGACGCTGCTG: -0.266 z-score
GCCTAGCACTTTGATCTCAGACTGGATTAGTGCTAGGTCTTGATTCGCTTGACGCTGCTG: 0.0871 z-score
GCCTAGCACTTCGATCTCAGACTGGATTAGTGCTAGGTCTTGATTCGCTTGACGCTGCTG: 0.411 z-score

Mixed results
PhoQ, residues 284 288 289 292 302 303 SSCLAV  fold induction (PhoP, residues 12 14 15 18 19 FWNTL (Escherichia coli, UniProt P23836); Sort-seq, measured: YFP reporter; E. coli; PhoQ-PhoP variant library, added: 10 µM Mg2+; relative to: high Mg2+ state, higher = stronger signaling): 2.79

Some of these lines once more (sample 3):
GCCTAGCACGACGAACTGGGGACTGAAGACGTGCTAGTCTTGATTCGCTTGACGCTGCTG: -0.266 z-score
